Measured values from different studies.
Protocols differ between the studies behind these lines. Several values in a cell are separate wells, animals, samples, runs or records. ± gives the spread as reported.
Sodium- and chloride-dependent glycine transporter 2: Sodium- and chloride-dependent glycine transporter 2 (Homo sapiens, UniProt Q9Y345)
Gria1/Gria2: Glutamate receptor AMPA 1/2 (Gria1/Gria2, Rattus norvegicus, UniProt P19490+P19491)
IFIT3: Interferon-induced protein with tetratricopeptide repeats 3 (IFIT3, Homo sapiens, UniProt O14879)

O=C(O)C[C@@H]1C[C@H](O)CN1 (relative stereo) — remaining specific binding (Sodium- and chloride-dependent glycine transporter 2; MS binding competition; 10 µM): 96.3 ± 4.2%
O=C(CCC(=O)Nc1ccc(Cl)cc1Cl)N/N=C/c1ccc([N+](=O)[O-])o1 — translation activity (Trypanosoma cruzi; reporter mRNA translation, inhibitor, measured: Renilla luciferase mRNA; cell-free extract; concentration not given, test 2; relative to: positive over negative control): 95.9%
COC(=O)Cc1cc2c(cc1C(=O)c1ccccc1Cl)OCO2 — desensitization time constant (Gria1/Gria2; glutamate-evoked current, whole-cell patch clamp; HEK-293T; concentration not given, weighted tau, 500 ms pulse, together with: glutamate): 4.5 ± 0.3 ms
CCCCCC=CC=C1C(=O)C=CC1CC=CCCCC(=O)O (stereo not drawn) — isoTOP-ABPP competition ratio (IFIT3; competitive isoTOP-ABPP; proteome, soluble, MDA-MB-231; 100 µM, 60 min, together with: iodoacetamide probe; relative to: DMSO over compound-treated, higher = stronger cysteine blockade): 7.7
COc1cc2ncnc(Nc3ccc(Oc4ccc(C)cc4)cc3)c2cc1OC — activity (SMUG1 (Homo sapiens, UniProt Q53HV7); enzyme activity, activator, fluorescence; 20 µM; relative to: control): 400 ± 80%
O=C1C[C@H](c2nc(-c3ccc(F)c4cn[nH]c34)no2)CCCN1c1ccc(F)cc1 (racemic) — fold change (CNR2 (Homo sapiens, UniProt P34972, F94A); GloSensor cAMP; concentration not given, CB2 mutant; relative to: mutant over wild type): 31
C=CC(=O)N1CCCC(n2c(=O)c3ncccc3n(Cc3ccc(Oc4ccccc4)cc3)c2=O)C1 (stereo not drawn) — melting temperature (WAS (Homo sapiens, UniProt P42768); thermal proteome profiling; replicate 2): 46.5 °C
CC1=CC(C)=[N+]2C1=C(CCCCCN1CCC(O)(c3ccccc3)CC1)c1c(C)cc(C)n1[B-]2(F)F — remaining specific binding (Sodium- and chloride-dependent glycine transporter 2; MS binding competition; 10 µM): 20.7 ± 1.9%
O=C(O)Cc1cc2c(cc1C(=O)c1ccc(Cl)cc1Cl)OCO2 — desensitization time constant (Gria1/Gria2; whole-cell patch clamp; HEK-293T; concentration not given, together with: glutamate): 2.8 ± 0.2 ms
O=C(N1CCCC1)n1cc(-c2ccc(-c3ccccc3)cc2)nn1 — activity ratio (Lysosomal phospholipase A and acyltransferase (Pla2g15, Mus musculus, UniProt Q8VEB4); enzyme activity, inhibitor, competitive ABPP-SILAC, measured: Lypla3; mouse T-cells; concentration not given, 4 h, treated in situ; relative to: DMSO): 1.35
CC(=O)c1cnc(NS(=O)(=O)c2ccc(Cl)c(Cl)c2)nc1 — oxidized product ratio (17-beta-hydroxysteroid dehydrogenase 13 (Homo sapiens, UniProt Q7Z5P4); enzyme activity; human hepatocytes, scramble siRNA, culture medium; 24 h; relative to: scramble siRNA control): 0.065 and 0.0746 and 0.0524 and 0.0676
CC(=O)NCCCC[C@H](NC(=O)[C@H](C)NC(=O)[C@H](CCCNC(=N)N)NC(=O)[C@H](C)NC(=O)[C@H](CCCCN)NC(=O)CNC(=O)CNC(=O)[C@H](CCC(N)=O)NC(=O)[C@H](CCCCN)NC(=O)CNC(=O)[C@H](CCCNC(=N)N)NC(=O)CNC(=O)[C@@H](N)CO)C(=O)N[C@@H](C)C(=O)N[C@@H](CCCCN)C(=O)N[C@@H](CO)C(=O)N[C@@H](CCCNC(=N)N)C(=O)N[C@@H](CO)C(=O)N[C@@H](CO)C(=O)O — binding stoichiometry (YEATS domain-containing protein 4, YEATS domain (Homo sapiens, UniProt O95619); isothermal titration calorimetry; concentration not given, pH 7.6, 25 °C, together with: histone peptide): 1
OC[C@H]1c2[nH]cnc2[C@H](O)[C@@H](O)[C@@H]1O — ΔH (bglA (Thermotoga maritima, UniProt Q08638); ITC; pH 5.8, 25 °C): -3.13 ± 0.143 kcal/mol
COC(=O)Cc1cc2c(cc1C(=O)c1ccc(Cl)cc1Cl)OCO2 — deactivation time constant (Gria1/Gria2; glutamate-evoked current, whole-cell patch clamp; HEK-293T; concentration not given, weighted tau, 1 ms pulse, together with: glutamate): 3.5 ± 0.2 ms
CCCCCCCCCCCCCCCC(=O)NCCCC[C@H](NC(=O)[C@H](CCC(=O)O)NC(=O)[C@H](Cc1ccc(O)cc1)NC(=O)[C@H](CCC(=O)O)NC(=O)COCC(=O)NCCCOCCOCCOCCCNC(=O)[C@H](Cc1c[nH]c2ccccc12)NC(=O)[C@H](CCCCN)NC(=O)[C@H](C)NC(=O)[C@H](CCCCNC(=N)N)NC(=O)[C@H](CCC(N)=O)NC(=O)[C@H](Cc1c[nH]cn1)NC(=O)[C@H](CCSC)NC(=O)[C@H](CC(C)C)NC(=O)[C@H](CCC(N)=O)NC(=O)[C@@H](NC(=O)[C@H](CCC(=O)O)NC(=O)C(C)(C)NC(=O)[C@@H](NC(=O)C(C)(C)N)C(C)C)[C@@H](C)CC)C(=O)N[C@@H](CCC(=O)O)C(=O)N[C@@H](Cc1ccc(O)cc1)C(=O)N[C@@H](CCC(=O)O)C(N)=O — cAMP luminescence AUC (PTH1R (Homo sapiens, UniProt Q03431); agonist; Saos-2 with cAMP reporter; 1 nM, 30 min, ligand-on phase; higher = more cAMP): 75.4 a.u.
C=C(C)C1CC=C(CN2CCN(Cc3ccccc3)CC2)CC1 (stereo not drawn) — translation activity (Trypanosoma cruzi; reporter mRNA translation, inhibitor, measured: Renilla luciferase mRNA; cell-free extract; concentration not given, test 2; relative to: positive over negative control): 109% and 100%
CC(=O)N1c2ccc(-c3ccc(CNC(=O)c4cn5cc(-c6cnc(N)nc6)nc(N6CCOCC6)c5n4)cc3)cc2CC[C@@H]1C — remaining binding (BRD9 (Homo sapiens, UniProt Q9H8M2); binding, competition with immobilised ligand; 10 µM): 76%
CC(C)Oc1cc(Cl)ccc1CNc1cc(-c2ccccc2)nc2ncnn12 — cAMP luminescence (GPR3 (Homo sapiens, UniProt P46089); cAMP reporter; human cells; 1 nM; higher is more cAMP): 55100 a.u. and 16700 a.u. and 44400 a.u. and 27000 a.u. and 43700 a.u. and 35200 a.u. and 50200 a.u. and 50000 a.u.
N#CSCCCCCCOc1ccc2c(-c3ccccc3)cc(=O)oc2c1 — selectivity ratio (CA12 (Homo sapiens, UniProt O43570); stopped-flow CO2 hydration; relative to: Ki CA I over Ki CA XII): > 794
Cn1c(=O)n(C2CCC(=O)NC2=O)c2ccc(C3CCN(CC(=O)Nc4cccc(CS(=O)(=O)N5CC[C@H](Nc6cccc(-c7sc(C(=O)O)c(OCC(=O)O)c7Cl)c6)CC5(C)C)c4)CC3)cc21 (stereo partly drawn) — BLI binding response (PTPN2 (Homo sapiens, UniProt P17706); degrader, bio-layer interferometry; 125 nM, biotinylated protein immobilised; higher = more binding): 0.375 a.u. and 0.368 a.u.
CCOC(=O)CCCc1cccc2c(-c3ccc(Oc4ccccc4)cc3)ccnc12 — ΔTm (Glideosome-associated protein 50 (GAP50, Plasmodium falciparum, UniProt Q8I2X3); differential scanning fluorimetry): -3 °C
CC(C)(C)n1ncc2c(=O)n(Cc3cccc(F)c3)c(NCc3ccc(F)cn3)nc21 — selectivity ratio (PDE8A (Homo sapiens, UniProt O60658); enzyme activity, inhibitor; relative to: IC50 PDE8A1 over PDE1C): > 2220 fold
O=C1c2sc(-c3ccc(N4CCC(F)C4)nc3F)nc2CCN1c1cccnc1 (stereo not drawn) — specific binding (TAR DNA-binding protein 43, aggregated (TARDBP, Homo sapiens, UniProt Q13148); radioligand binding; human, FTLD-TDP type C sarkosyl-insoluble extract; 200 nM): 0.899 nM and 1.03 nM and 1.22 nM
N[C@H]1CC[C@H](Nc2nccc(-c3cccnc3Oc3ccc(NC(=O)NC4CC4)c4ccccc34)n2)CC1 — log2 LFQ intensity (PHKA2 (human); kinobead competition pulldown; HEK293/HCT116 lysate mixture; 10 µM, 1 h, 4 °C; lower = stronger competition): 23.8 and 23.9
O[C@H]1[C@H](O)[C@@H](Cl)C=C[C@@H]1O — kinact/Ki (GBA1 (Homo sapiens, UniProt P04062); continuous progress curves; pH 5.2, 25 °C, 0.1% BSA): 41 ± 2 M⁻¹ s⁻¹
CCCCCCCCCCCCCCCc1cccc(OCC)c1C(=O)Nc1ccc(Cl)c(C(F)(F)F)c1 — SPR binding response (KAT5 (Homo sapiens, UniProt Q92993); SPR; 50 µM; higher = more binding): 1.07 RU
CC(C)[C@@H]1NC(=O)[C@H](Cc2ccccc2)NC(=O)CSC[C@@H](C(N)=O)NC(=O)[C@H](CCC(=O)O)NC(=O)[C@H](CO)NC(=O)[C@H](Cc2c[nH]c3cccc(Cl)c23)NC(=O)[C@H](C2CCCCC2)NC(=O)[C@H](C(C)C)NC(=O)[C@H](Cc2ccc(O)cc2)NC(=O)[C@H](CC(=O)O)NC(=O)[C@H](Cc2c[nH]c3ccccc23)NC(=O)[C@H](Cc2ccc(N)nc2)NC(=O)[C@H](Cc2c[nH]c3ccc(Cl)cc23)NC(=O)[C@H](CCC(=O)O)NC1=O — remaining activity (Interleukin-1 receptor-like 2 (IL1RL2, Homo sapiens, UniProt Q9HB29); reporter gene (SEAP), inhibitor, HEK-Blue IL-36R reporter; HEK-Blue IL-36R cells; 0.015 µM, 6 h, together with: IL-36γ 0.03 ng/mL): 82.3%
CCCCCC(O)/C=C/C=O (stereo not drawn) — isoTOP-ABPP competition ratio (IFIT3; competitive isoTOP-ABPP; proteome, soluble, MDA-MB-231; 100 µM, 60 min, together with: iodoacetamide probe; relative to: DMSO over compound-treated, higher = stronger cysteine blockade): 1.5
C#CCCCCNC(=O)c1ccc(N(C(=O)C=C)c2ccc(Br)cc2)cc1 — reactivity ratio (PHGDH (Homo sapiens, UniProt O43175); mass spectrometry profiling; H460 cell lysate; 100 µM over 10 µM, UniProt O43175; relative to: high over low concentration): 1.69
CC[C@H](C)[C@@H]1NC(=O)[C@H](Cc2ccccc2)NC(=O)[C@H](CCC(=O)O)NC(=O)[C@H](CCCNC(=N)N)NC(=O)CNC(=O)[C@@H](NC(=O)[C@H](CC(C)C)NC(=O)[C@H](CCCNC(=N)N)NC(=O)[C@@H](NC(=O)CNC(=O)[C@H](Cc2ccc(O)cc2)NC(=O)[C@@H]2CCCN2C(=O)[C@H](C)NC(=O)[C@H](C)NC(=O)[C@@H](N)CCCNC(=N)N)C(C)C)CSSC[C@@H]2NC(=O)[C@@H](NC(=O)[C@H](CO)NC(=O)[C@H](CO)NC(=O)[C@H](CO)NC(=O)[C@H](CC(C)C)NC(=O)CNC(=O)[C@H](C)NC(=O)[C@H](CC(C)C)NC(=O)[C@@H](NC(=O)[C@@H](N)CC(=O)O)C(C)C)CSSC[C@H](NC(=O)CNC(=O)[C@H](Cc3c[nH]c4ccccc34)NC(=O)[C@H](CCCCN)NC2=O)C(=O)N[C@@H](CO)C(=O)N[C@@H](CCCCN)C(=O)N[C@@H](CO)C(=O)N[C@@H](CCC(=O)O)C(=O)N[C@@H]([C@@H](C)CC)C(=O)N[C@@H](CO)C(=O)N[C@@H](CO)C(=O)N[C@@H](CC(C)C)C(=O)N[C@H](C(=O)O)CSSC[C@@H](C(=O)NCC(=O)NCC(=O)N[C@@H](CO)C(=O)N[C@@H](CCCNC(=N)N)C(=O)N[C@@H](Cc2c[nH]c3ccccc23)C(=O)O)NC(=O)[C@H]([C@@H](C)O)NC(=O)[C@H](Cc2ccccc2)NC(=O)[C@H]([C@@H](C)CC)NC(=O)[C@H](C(C)C)NC(=O)[C@H](C)NC(=O)[C@H](CCCNC(=N)N)NC1=O — change in pEC50 (RXFP4 (Homo sapiens, UniProt Q8TDU9, H299A); agonist; H299A mutant, unit not given; relative to: wild type): -1.57 and -2.41 and -1.51 and -2.46

Some of these lines once more:
O[C@H]1[C@H](O)[C@@H](Cl)C=C[C@@H]1O — kinact/Ki (GBA1 (Homo sapiens, UniProt P04062); continuous progress curves; pH 5.2, 25 °C, 0.1% BSA): 41 ± 2 M⁻¹ s⁻¹
N[C@H]1CC[C@H](Nc2nccc(-c3cccnc3Oc3ccc(NC(=O)NC4CC4)c4ccccc34)n2)CC1 — log2 LFQ intensity (PHKA2 (human); kinobead competition pulldown; HEK293/HCT116 lysate mixture; 10 µM, 1 h, 4 °C; lower = stronger competition): 23.8 and 23.9
CC(C)[C@@H]1NC(=O)[C@H](Cc2ccccc2)NC(=O)CSC[C@@H](C(N)=O)NC(=O)[C@H](CCC(=O)O)NC(=O)[C@H](CO)NC(=O)[C@H](Cc2c[nH]c3cccc(Cl)c23)NC(=O)[C@H](C2CCCCC2)NC(=O)[C@H](C(C)C)NC(=O)[C@H](Cc2ccc(O)cc2)NC(=O)[C@H](CC(=O)O)NC(=O)[C@H](Cc2c[nH]c3ccccc23)NC(=O)[C@H](Cc2ccc(N)nc2)NC(=O)[C@H](Cc2c[nH]c3ccc(Cl)cc23)NC(=O)[C@H](CCC(=O)O)NC1=O — remaining activity (Interleukin-1 receptor-like 2 (IL1RL2, Homo sapiens, UniProt Q9HB29); reporter gene (SEAP), inhibitor, HEK-Blue IL-36R reporter; HEK-Blue IL-36R cells; 0.015 µM, 6 h, together with: IL-36γ 0.03 ng/mL): 82.3%
Cn1c(=O)n(C2CCC(=O)NC2=O)c2ccc(C3CCN(CC(=O)Nc4cccc(CS(=O)(=O)N5CC[C@H](Nc6cccc(-c7sc(C(=O)O)c(OCC(=O)O)c7Cl)c6)CC5(C)C)c4)CC3)cc21 (stereo partly drawn) — BLI binding response (PTPN2 (Homo sapiens, UniProt P17706); degrader, bio-layer interferometry; 125 nM, biotinylated protein immobilised; higher = more binding): 0.375 a.u. and 0.368 a.u.
